Measured values pooled from the literature.
Values joined by “and” are separate records of one study, mostly repeats; a detail may differ. ± marks the error that the study gave.
Chain of UniProt P01556 (whole entry, looked up): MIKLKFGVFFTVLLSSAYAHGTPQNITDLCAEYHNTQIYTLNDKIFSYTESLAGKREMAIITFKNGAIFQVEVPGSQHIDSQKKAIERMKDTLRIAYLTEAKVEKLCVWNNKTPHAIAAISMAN
Chain of UniProt P9WHR3 (whole entry, looked up): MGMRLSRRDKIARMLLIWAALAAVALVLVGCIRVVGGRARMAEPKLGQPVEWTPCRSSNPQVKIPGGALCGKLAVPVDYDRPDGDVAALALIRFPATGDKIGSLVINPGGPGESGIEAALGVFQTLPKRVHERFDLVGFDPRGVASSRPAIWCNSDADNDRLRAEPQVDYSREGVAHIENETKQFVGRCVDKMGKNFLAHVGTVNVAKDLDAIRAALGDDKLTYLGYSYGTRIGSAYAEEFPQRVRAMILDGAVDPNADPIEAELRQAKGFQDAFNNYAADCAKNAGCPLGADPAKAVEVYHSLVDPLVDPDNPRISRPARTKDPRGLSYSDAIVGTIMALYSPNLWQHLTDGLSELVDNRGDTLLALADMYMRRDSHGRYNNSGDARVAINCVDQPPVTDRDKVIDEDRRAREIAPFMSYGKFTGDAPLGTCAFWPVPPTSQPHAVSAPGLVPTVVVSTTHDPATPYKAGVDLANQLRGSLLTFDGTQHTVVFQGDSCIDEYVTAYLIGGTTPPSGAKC
Chain of UniProt Q16762 (whole entry, looked up): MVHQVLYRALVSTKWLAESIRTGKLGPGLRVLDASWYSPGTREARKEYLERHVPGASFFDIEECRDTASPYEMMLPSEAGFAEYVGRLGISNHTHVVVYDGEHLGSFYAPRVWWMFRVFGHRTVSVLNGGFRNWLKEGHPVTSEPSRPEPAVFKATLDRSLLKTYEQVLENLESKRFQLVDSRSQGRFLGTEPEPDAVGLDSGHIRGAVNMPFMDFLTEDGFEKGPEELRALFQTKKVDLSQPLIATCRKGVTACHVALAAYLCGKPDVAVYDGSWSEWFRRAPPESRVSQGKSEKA
Chain of UniProt Q9NY46 (whole entry, looked up): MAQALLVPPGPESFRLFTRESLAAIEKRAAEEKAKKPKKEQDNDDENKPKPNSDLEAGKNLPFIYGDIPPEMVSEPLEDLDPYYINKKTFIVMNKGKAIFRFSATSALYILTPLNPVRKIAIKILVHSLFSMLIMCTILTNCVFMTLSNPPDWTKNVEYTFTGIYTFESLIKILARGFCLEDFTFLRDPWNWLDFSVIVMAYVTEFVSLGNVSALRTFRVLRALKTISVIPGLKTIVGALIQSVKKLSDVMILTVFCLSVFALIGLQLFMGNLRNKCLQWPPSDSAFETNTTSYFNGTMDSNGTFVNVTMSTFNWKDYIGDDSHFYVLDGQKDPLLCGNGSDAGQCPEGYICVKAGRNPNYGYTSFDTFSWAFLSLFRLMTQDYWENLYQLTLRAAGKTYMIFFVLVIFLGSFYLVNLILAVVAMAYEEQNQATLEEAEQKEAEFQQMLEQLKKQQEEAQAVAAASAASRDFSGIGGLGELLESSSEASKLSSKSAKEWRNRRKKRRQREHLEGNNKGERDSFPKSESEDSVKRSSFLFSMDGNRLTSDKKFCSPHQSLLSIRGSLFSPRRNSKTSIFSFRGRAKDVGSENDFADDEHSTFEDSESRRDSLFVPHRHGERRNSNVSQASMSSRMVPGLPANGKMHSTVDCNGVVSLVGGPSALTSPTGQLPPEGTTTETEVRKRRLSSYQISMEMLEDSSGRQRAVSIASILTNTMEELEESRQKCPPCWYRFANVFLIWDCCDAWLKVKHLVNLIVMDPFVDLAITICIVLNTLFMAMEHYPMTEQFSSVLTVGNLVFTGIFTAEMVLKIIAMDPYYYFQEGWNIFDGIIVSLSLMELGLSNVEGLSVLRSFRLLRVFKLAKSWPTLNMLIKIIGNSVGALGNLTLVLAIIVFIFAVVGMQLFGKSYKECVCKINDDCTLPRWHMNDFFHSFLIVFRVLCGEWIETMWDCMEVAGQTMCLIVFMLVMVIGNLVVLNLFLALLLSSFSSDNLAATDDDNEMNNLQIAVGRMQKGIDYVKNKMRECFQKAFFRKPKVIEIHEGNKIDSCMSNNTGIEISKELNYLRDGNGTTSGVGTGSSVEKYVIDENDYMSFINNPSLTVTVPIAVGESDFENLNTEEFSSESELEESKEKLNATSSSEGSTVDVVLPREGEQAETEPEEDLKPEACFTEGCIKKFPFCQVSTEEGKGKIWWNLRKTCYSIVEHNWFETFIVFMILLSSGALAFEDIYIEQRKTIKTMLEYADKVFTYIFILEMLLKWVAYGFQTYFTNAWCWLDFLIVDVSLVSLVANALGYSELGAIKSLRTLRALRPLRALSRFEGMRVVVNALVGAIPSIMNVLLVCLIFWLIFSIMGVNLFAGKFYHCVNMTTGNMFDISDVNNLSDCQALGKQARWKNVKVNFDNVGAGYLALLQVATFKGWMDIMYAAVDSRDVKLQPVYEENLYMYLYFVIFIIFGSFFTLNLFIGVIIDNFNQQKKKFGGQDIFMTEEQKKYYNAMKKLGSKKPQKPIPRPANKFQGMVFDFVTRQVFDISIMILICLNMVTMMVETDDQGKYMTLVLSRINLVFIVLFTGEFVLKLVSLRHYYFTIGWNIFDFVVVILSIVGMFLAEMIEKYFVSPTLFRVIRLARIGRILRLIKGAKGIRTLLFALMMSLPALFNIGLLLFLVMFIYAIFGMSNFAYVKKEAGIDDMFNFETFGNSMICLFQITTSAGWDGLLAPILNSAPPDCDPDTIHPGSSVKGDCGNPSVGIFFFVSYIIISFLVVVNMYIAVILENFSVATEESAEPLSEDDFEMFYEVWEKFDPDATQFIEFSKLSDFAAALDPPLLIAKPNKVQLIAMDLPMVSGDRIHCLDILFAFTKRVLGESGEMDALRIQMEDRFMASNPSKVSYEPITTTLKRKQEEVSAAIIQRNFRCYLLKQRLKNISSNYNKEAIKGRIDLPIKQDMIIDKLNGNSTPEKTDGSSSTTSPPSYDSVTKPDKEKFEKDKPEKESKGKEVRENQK

Structure (SMILES) = O=C1SCCC1NC(C(=O)NCc1ccccc1)C1CC1 (stereo not shown); target = Thiosulfate sulfurtransferase (TST, Homo sapiens, UniProt Q16762); assay = activator, refers to: potassium cyanide; setting = 17.1 µM, with: sodium thiosulfate 60 mM; endpoint = Km; value = 5200 ± 980 µM
Structure (SMILES) = O=C(NCCc1cccc(F)c1)[C@@H](c1cncnc1)N(C(=O)[C@H](F)Cl)c1ccc(S(F)(F)(F)(F)F)cc1; target = Replicase polyprotein 1ab, main protease (rep, Severe acute respiratory syndrome coronavirus 2, UniProt P0DTD1); assay = enzyme activity, inhibitor; endpoint = kinact; value = 0.0056 s⁻¹
Structure (SMILES) = CC(C)C[C@H](NC(=O)OCc1ccccc1)C(=O)N[C@@H](C[C@@H]1CCNC1=O)C(O)S(=O)(=O)O (stereo partly shown); target = Replicase polyprotein 1ab, main protease (rep, Severe acute respiratory syndrome-related coronavirus, UniProt P0C6X7); assay = thermal stability; endpoint = ΔTm; value = 9.78 °C
Structure (SMILES) = CC(C)C[C@@H]1NC(=O)[C@H](CCCNC(=N)N)NC(=O)[C@@H]2CCCN2C(=O)[C@@H]2CSSC[C@H](NC(=O)CNC(=O)[C@@H]3CCCN3C(=O)[C@H](CCCCN)NC(=O)[C@H](CC(=O)O)NC(=O)[C@@H](NC(=O)CN)C(C)C)C(=O)N[C@@H](CCCNC(=N)N)C(=O)N[C@@H](Cc3ccc(O)cc3)C(=O)N[C@@H](CC(C)C)C(=O)N[C@@H](Cc3ccccc3)C(=O)NCC(=O)NCC(=O)N[C@H]3CSSC[C@H](NC(=O)CNC1=O)C(=O)N[C@@H](CCCCN)C(=O)NCC(=O)N[C@@H](CCCCN)C(=O)NCC(=O)N[C@@H](Cc1c[nH]cn1)C(=O)N[C@@H](CC(=O)O)C(=O)N[C@@H](Cc1ccc(O)cc1)C(=O)N[C@H](C(=O)N[C@@H](C)C(=O)N[C@@H](Cc1c[nH]c4ccccc14)C(=O)N[C@@H](CC(=O)O)C(=O)NCC(=O)N[C@H](C(=O)N[C@@H](Cc1ccccc1)C(=O)N[C@@H](CO)C(=O)N[C@@H](CC(=O)O)C(=O)O)[C@@H](C)O)CSSC[C@H](NC(=O)[C@H](CC(=O)O)NC(=O)[C@H](CC(=O)O)NC(=O)[C@H](CC(=O)O)NC(=O)[C@H](CO)NC(=O)[C@H](CCCCN)NC3=O)C(=O)N2; target = Sodium channel protein type 3 subunit alpha (SCN3A, Homo sapiens, UniProt Q9NY46); assay = sodium current, automated patch clamp; test system = HEK293; setting = 1 µM, 50 ms depolarizing pulse; scale = relative to: compound over control; endpoint = inactivation time constant ratio; value = 4.45 ± 0.65
Structure (SMILES) = CC(C)C[C@H](NC(=O)CNC(=O)[C@H](CCCNC(=N)N)NC(=O)[C@H](CCCNC(=N)N)NC(=O)[C@H](C)NC(=O)[C@H](CCC(=O)O)NC(=O)c1ccc(N=Nc2ccc(N(C)C)cc2)cc1)C(=O)N[C@@H](CCC(=O)NCCNc1cccc2c(S(=O)(=O)O)cccc12)C(=O)N[C@@H](CCCNC(=N)N)C(=O)O; target = hip1 (Mycobacterium tuberculosis, UniProt P9WHR3); assay = substrate; endpoint = Km; value = ~20 µM and 18 µM
Structure (SMILES) = O=C(C=Cc1ccc(O)c(O)c1)OC1CC(O)(C(=O)O)CC(OC(=O)C=Cc2ccc(O)c(O)c2)C1O (stereo not shown); target = Spike glycoprotein (Severe acute respiratory syndrome coronavirus 2, UniProt P0DTC2); assay = binding; endpoint = kon; value = 892 M⁻¹ s⁻¹
Structure (SMILES) = CC(=O)NCC(=O)N[C@@H](C)C(=O)N[C@@H](CCC(=O)O)C(=O)N[C@@H](C)C(=O)N[C@@H](CCC(=O)O)C(=O)N1CCC[C@H]1C(=O)N[C@@H](CCC(=O)O)C(=O)NCC(=O)N[C@@H](C)C(=O)N[C@@H](CCC(=O)O)C(=O)N[C@@H](C)C(=O)N[C@@H](CCC(=O)O)C(=O)N1CCC[C@H]1C(=O)N[C@@H](CCC(=O)O)C(=O)NCC(=O)N[C@@H](C)C(=O)N[C@@H](CCC(=O)O)C(=O)N[C@@H](C)C(=O)N[C@@H](CCC(=O)O)C(=O)N1CCC[C@H]1C(=O)N[C@@H](CCC(=O)O)C(=O)NCC(=O)N[C@@H](C)C(=O)N[C@@H](CCC(=O)O)C(=O)N[C@@H](C)C(=O)N[C@@H](CCC(=O)O)C(=O)N1CCC[C@H]1C(=O)N[C@@H](CCC(=O)O)C(=O)NCC(=O)N[C@@H](C)C(=O)N[C@@H](CCC(=O)O)C(=O)N[C@@H](C)C(=O)N[C@@H](CCC(=O)O)C(=O)N1CCC[C@H]1C(=O)N[C@@H](Cc1cn([C@@H]2O[C@H](CO)[C@H](O)[C@H](O)[C@H]2O)nn1)C(=O)NCC(=O)NCC(=O)NCC(=O)NCC(N)=O; target = ctxB, pentamer (Vibrio cholerae, UniProt P01556); setting = concentration not given; scale = relative to: galactose; endpoint = inhibition potency; value = 100 fold
Structure (SMILES) = CC(C)(C)OC(=O)C[C@H](NC(=O)OCc1ccccc1)C(=O)CBr; target = Replicase polyprotein 1ab, main protease (rep, Severe acute respiratory syndrome-related coronavirus, UniProt P0C6X7); assay = covalent inhibitor; setting = thioether formation; endpoint = time to irreversible covalent complex; value = > 6 h
Structure (SMILES) = CC[C@H](C)[C@H](NC(=O)[C@H](CC(C)C)NC(=O)[C@H](Cc1ccc(OP(=O)(O)O)cc1)NC(=O)[C@H](CCC(=O)O)NC(=O)[C@H](CC(=O)O)NC(=O)[C@H](C)NC(=O)[C@H](CC(=O)O)NC(=O)[C@@H](NC(=O)[C@H](CC(C)C)NC(=O)CCCC[C@@H]1SC[C@@H]2NC(=O)N[C@@H]21)C(C)C)C(=O)N1CCC[C@H]1C(=O)N[C@@H](CCC(N)=O)C(=O)N[C@@H](CCC(N)=O)C(=O)NCC(=O)O; target = Secreted effector protein (Yersinia pestis, UniProt O68720); endpoint = ΔG; value = -4.38 kcal/mol
Structure (SMILES) = O=[N+]([O-])c1cccc(O[C@H]2O[C@H](CO)[C@H](O)[C@H](O)[C@H]2O)c1; target = ctxB (Vibrio cholerae, UniProt P01556); assay = binding; endpoint = Hill slope; value = -1.02

A few entries again:
Structure (SMILES) = O=C1SCCC1NC(C(=O)NCc1ccccc1)C1CC1 (stereo not shown); target = Thiosulfate sulfurtransferase (TST, Homo sapiens, UniProt Q16762); assay = activator, refers to: potassium cyanide; setting = 17.1 µM, with: sodium thiosulfate 60 mM; endpoint = Km; value = 5200 ± 980 µM
